Published values gathered from unrelated publications.
Numbered parts are unrelated; each lists some results of a single study.

Block 1 — method: protein-binding microarray; form: double-stranded DNA, one strand shown; matrix: in vitro; concentration: 0.8 µM; notes: whole 60-bp probe, no competitor; direction: higher = stronger binding; quantity: fluorescence intensity; all sequences stand within: … GTCTTGATTCGCTTGACGCTGCTG
Target: Centromere-binding protein 1, full length, N-terminal tag (CBF1, Saccharomyces cerevisiae, UniProt P17106, residues 1-351)
UniProt P17106, sequence (whole entry, looked up): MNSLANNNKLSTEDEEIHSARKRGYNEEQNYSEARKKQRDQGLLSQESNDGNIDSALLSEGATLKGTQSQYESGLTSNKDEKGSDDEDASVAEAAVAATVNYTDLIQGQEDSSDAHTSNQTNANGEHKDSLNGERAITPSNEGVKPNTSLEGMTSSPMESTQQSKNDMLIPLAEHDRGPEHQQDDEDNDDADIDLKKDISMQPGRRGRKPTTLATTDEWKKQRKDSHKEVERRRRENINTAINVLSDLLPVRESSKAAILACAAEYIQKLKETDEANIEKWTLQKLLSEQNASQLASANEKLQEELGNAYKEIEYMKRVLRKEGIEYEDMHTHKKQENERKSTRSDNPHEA
GAAGTTGTCGAAAAAAACATCAGGCGTATACCATAG: 551 a.u.
CTAACTCAATAGTGCCACACCATTGTTAACGAGTTC: 507 a.u.
CCTAACTACTATAACCTGACTCCATAGCTTCGTACA: 562 a.u.
CTAATTTATATGACTCACCTGGTAAAACATCTATTC: 586 a.u.
CTACGCTTAATACAACACGTCGGCTTTCGCTCATTC: 534 a.u.
GAAACCTTGGAATGTGTCACGTTGGGCATTTTTTAG: 1780 a.u.
CCTAACTACTATAGCATCACCAGATAGCTTCGTACA: 514 a.u.
CTAAATTAATAGTGACATGTGTTGCTATGGTAATTC: 727 a.u.
CTAAGCTTGGCTCATGTCGTCACCAGTCACTAGTTC: 554 a.u.

Block 2 — method: protein-binding microarray; form: double-stranded DNA, one strand shown; matrix: in vitro; concentration: not given; direction: higher = stronger binding; quantity: E-score
Target: Protein max, full length (MAX, Homo sapiens, UniProt P61244-2, residues 1-151)
Notes: k-mer, scored over probes, only values ≥0.25
AAATGTGC: 0.327
CGTGTGAA: 0.263
GCGGTCAC: 0.265
TACCACGA: 0.285
GCACATGC: 0.478

Block 3 — method: protein-binding microarray; form: double-stranded DNA, one strand shown; matrix: in vitro; concentration: 250 nM; notes: 60-bp whole probe; added: salmon DNA 0.4 mg/ml; relative to: random background probes; direction: higher = stronger binding; quantity: log fluorescence; all sequences stand within: GCCTAGCAC … GTCTTGATTCGCTTGACGCTGCTG
Target: Interferon regulatory factor 7, full length, phosphomimetic (IRF7, Homo sapiens, UniProt Q92985, residues 1-503, S101K/S471D/S472D/S475D/S476D/S477D/S483D/S484D/S487D)
Residues (chain): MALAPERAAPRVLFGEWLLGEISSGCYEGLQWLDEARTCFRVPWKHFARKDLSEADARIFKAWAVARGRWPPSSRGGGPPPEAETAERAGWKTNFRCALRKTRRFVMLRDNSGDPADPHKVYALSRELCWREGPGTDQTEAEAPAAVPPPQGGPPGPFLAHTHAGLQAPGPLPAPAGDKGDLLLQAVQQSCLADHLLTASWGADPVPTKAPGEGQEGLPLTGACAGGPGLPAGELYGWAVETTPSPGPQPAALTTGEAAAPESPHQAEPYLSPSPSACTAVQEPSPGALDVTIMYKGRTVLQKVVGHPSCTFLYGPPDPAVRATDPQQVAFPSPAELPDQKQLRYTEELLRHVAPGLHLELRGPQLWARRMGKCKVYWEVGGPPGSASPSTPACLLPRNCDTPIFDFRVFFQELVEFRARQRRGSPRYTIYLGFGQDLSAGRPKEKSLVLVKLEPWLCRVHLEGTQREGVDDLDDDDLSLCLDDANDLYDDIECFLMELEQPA
TCAATTTTTACCCTCCTACTGTGCTAG: 0.121 z-score
TTAGGTATCGCCTATCGGTTAGTGCTA: -0.109 z-score
GACGATTCCAGTTTCGAGAAGTGCTAG: 2.65 z-score
GAAGATTTCAGTCTCGAGACGTGCTAG: 0.525 z-score
TTAGGTTTCCGTATCCTTTAGTGCTAG: 3.66 z-score
GACGGTATCGGCATCGGGACGTGCTAG: -0.67 z-score
TTAGGTTCCGGTTTCGGCTAGTGCTAG: 7.81 z-score
GACGATTTCAGTTTCGAGATGTGCTAG: 6.07 z-score
TTAGGACTGGGACTGGTTTAGTGCTAG: -0.0142 z-score
CTTCCCCTCTCTTTCCAACTGTGCTAG: 1.89 z-score

Single results of other studies
PhoQ, residues 284 288 289 292 302 303 SLANKL — fold induction (PhoP, residues 12 14 15 18 19 SYFRT (Escherichia coli, UniProt P23836); Sort-seq, item: YFP reporter; E. coli; PhoQ-PhoP variant library, added: 10 µM Mg2+; relative to: high Mg2+ state, higher = stronger signaling): 4.98
